{"data": "Assay results gathered from unrelated publications", "note": "Lines come from different studies, so protocols differ."}
{"SMILES": "CC(C)(O)CNc1nc(Nc2ccnc(C(F)(F)F)c2)nc(-c2cccc(C(F)(F)F)n2)n1", "system": "human patients", "conditions": "oral, 100 mg once daily, cycle 1 day 1, added: consolidation chemotherapy", "median Tmax": "2.08 h"}
{"SMILES": "CN1C(=O)[C@@H](NC(=O)c2nnc(Cc3ccccc3)[nH]2)COc2ccccc21", "system": "human, male, whole blood", "conditions": "oral, 40 mg single dose, fed, high-fat meal", "median Tmax": "3 h"}
{"SMILES": "N#Cc1ccnc(N2C(=O)CC[C@H]2C(=O)N(c2cncc(F)c2)[C@H](C(=O)NC2CC(F)(F)C2)c2ccccc2Cl)c1", "system": "human patients", "conditions": "oral, 500 mg once daily, cycle 1 day 1, added: induction chemotherapy", "median Tmax": "3.99 h"}
{"SMILES": "CCCCOC(=O)N1CCN(C(=O)[C@H](CP(=O)(O)O)NC(=O)c2cc(N3CC[C@H](OC)C3)nc(-c3ccccc3)n2)CC1", "system": "healthy human, plasma", "conditions": "subcutaneous, 4 mg, added: rifampin 600 mg i.v.", "median Tmax": "0.5 h"}
{"SMILES": "Cn1c(-c2ccc(C(N)=O)cc2F)nnc1C(C)(C)Oc1c(F)cc(Cl)cc1F", "system": "young non-Japanese humans, plasma", "conditions": "oral, 2 mg once daily, last day of 14 days", "median Tmax": "1.5 h"}
{"SMILES": "NCCCS(=O)(=O)O", "system": "human, plasma", "conditions": "oral, 100 mg modified-release tablet, single dose", "median Tmax": "4.5 h"}
{"SMILES": "CC[C@@H]1C(=O)N(C)c2cnc(Nc3ccc(C(=O)N[C@H]4CC[C@H](N5CCN(CC6CC6)CC5)CC4)cc3OC)nc2N1C(C)C", "system": "human, plasma", "conditions": "intravenous infusion, 300 mg over 2 h, first infusion", "median Tmax": "1.97 h"}
{"SMILES": "CN(C)[C@@H](CCOc1cccc2ccccc12)c1ccccc1", "system": "healthy male humans, plasma", "conditions": "oral, 60 mg, added: udenafil 200 mg", "median Tmax": "1 h"}
{"note": "Some of these lines once more:"}
{"SMILES": "CN(C)[C@@H](CCOc1cccc2ccccc12)c1ccccc1", "system": "healthy male humans, plasma", "conditions": "oral, 60 mg, added: udenafil 200 mg", "median Tmax": "1 h"}
